Published values pooled from the literature.
A part holds a random share of what one study measured. Values joined by “and” are separate records of one study, mostly repeats; a detail may differ. Substitutions count along the parent as printed.

Study 1 — technique: universal PBM; molecule type: double-stranded DNA, one strand shown; medium: in vitro; concentration: not given; direction: higher = stronger binding
Target: Sal-like protein 4, full length isoform B (SALL4, Homo sapiens, UniProt Q9UJQ4-2, residues 1-616)
Notes: 8-mer, flanks averaged, mean of replicates
Residues (chain): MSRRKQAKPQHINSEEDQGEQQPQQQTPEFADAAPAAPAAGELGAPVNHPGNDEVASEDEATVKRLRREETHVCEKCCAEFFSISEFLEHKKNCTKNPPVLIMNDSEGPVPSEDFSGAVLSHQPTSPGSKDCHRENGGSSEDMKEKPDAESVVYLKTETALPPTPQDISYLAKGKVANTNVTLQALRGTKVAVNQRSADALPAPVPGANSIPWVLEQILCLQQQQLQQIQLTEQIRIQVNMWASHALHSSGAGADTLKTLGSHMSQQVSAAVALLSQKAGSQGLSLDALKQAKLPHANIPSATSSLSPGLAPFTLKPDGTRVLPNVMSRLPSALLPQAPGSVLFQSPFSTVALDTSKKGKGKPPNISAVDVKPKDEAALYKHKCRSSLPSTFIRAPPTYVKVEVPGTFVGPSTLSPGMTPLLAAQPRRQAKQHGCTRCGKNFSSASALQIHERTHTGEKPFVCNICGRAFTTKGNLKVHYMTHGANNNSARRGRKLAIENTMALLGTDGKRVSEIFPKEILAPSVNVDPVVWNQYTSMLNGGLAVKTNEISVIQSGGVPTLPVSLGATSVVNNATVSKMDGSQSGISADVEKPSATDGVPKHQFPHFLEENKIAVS
| Sequence | E-score |
| --- | --- |
| GACGCACC | -0.203 |
| CCCGTGAC | -0.208 |
| CATTTAAG | 0.204 |
| ATCACATG | 0.13 |
| AATCGAGC | -0.052 |
| AAGACCTT | 0.0566 |
| CAAGTGCC | -0.235 |
| AATCTTAA | 0.13 |

Study 2 — technique: RNA Bind-n-Seq; molecule type: RNA; medium: in vitro; concentration: 200 nM; notes: whole 134-nt RNA, ends assumed; together with: 150 mM LiCl; reference: input library; direction: higher = stronger binding; library: 7-deaza-guanosine replaces G
Target: Fragile X messenger ribonucleoprotein 1, C-terminal low-complexity region (Fmr1, Mus musculus, UniProt P35922)
Constant ends, left off below: GGGAGUUCUACAGUCCGACGAUC … UGGAAUUCUCGGGUGUCAAGG
| Sequence | log2 enrichment |
| --- | --- |
| UCCUGUGCUACACAUCGUAUGUACCGAAUCGGGGUUUUUGGGGAAAGGGGAAAAAGGGGAAAGUAUUAUGUUACGCCGUUCGGAUCUGCA | -0.553 |
| AGUCCUGUGCUACACAUCGUAUGUACCGAAUCGGGGUUUUUGGGGAAAGGGGUGGGGAAAGUAUUAUGUUACGCCGUUCGGAUCUGCACU | -1.11 |
| AGUCCUGUGCUACACAUCGUAUGUACCGAAUCGGGGUUUUGGGGUUUUGGGUUUUGGAAAGUAUUAUGUUACGCCGUUCGGAUCUGCACU | -1.51 |
| UGGGAGGUGGAUUUUGUUUAUUUUUUUAGCUCAUUUCCAGGGGUGGGAAUUUUCUUUUAAUAUGUGUCAUGAAUAAAGUUGUUUUUGAAA | -0.781 |
| UGGCCCUGGUGGCAUGCGGGGAGGAAGAGGUGGCCUCAUGGAUCGUGGUGGUCCCGGUGGAAUGUGCAGAGGUGGCCGUGGUGGAGACAG | 0.00542 |
| ACCAUGCAGGUGGGCAUCUUUGGGAAGUGGGGCAAGGGGGGGAUAGGGAGGGGGGUAACACUUUGGGAACAGAUGGUCCCAGGUCGUUUC | 1.47 |
| CUCAAGUCCUGUGCUACACAUCGUAUGUACCGAAUCGGGGCCGGGCCGGCCGGGAAAGUAUUAUGUUACGCCGUUCGGAUCUGCACUUCC | 0.861 |
| ACCUUCACGGCAUGGUGCAACUCCCACCUGCGGAAGGCAGGCACACAGAUCGAGAACAUUGAUGAGGACUUCCGAGACGGGCUCAAGCUC | 0.965 |

Study 3 — technique: DHFR PCA, dose-response; medium: yeast; notes: Hill fit, mean, not affinity; together with: (+)-ABA, dose series; direction: lower = more sensitive
Target: ABI1, truncated, D143A, DHFR fusion (Arabidopsis thaliana, UniProt P49597)
Starting sequence: PYL1, truncated, DHFR fusion (Arabidopsis thaliana, UniProt Q8VZS8); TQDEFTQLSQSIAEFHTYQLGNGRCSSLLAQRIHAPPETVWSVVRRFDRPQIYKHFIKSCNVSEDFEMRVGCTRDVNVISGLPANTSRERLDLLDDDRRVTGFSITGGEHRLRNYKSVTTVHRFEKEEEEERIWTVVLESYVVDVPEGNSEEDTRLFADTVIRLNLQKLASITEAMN
| Variant | ABA EC50 |
| --- | --- |
| M176G | 2 µM |
| A13Y | 9.26 µM |
| D92S | 88 µM |
| Q31E | 28.2 µM |
| L20K | 3.85 µM |
| R113M | 3.44 µM |
| E129S | 2.29 µM |
| R155F | 193 µM |

Further values, each from its own experiment
| SMILES | cell line | assay | setting | scale | quantity | value |
| --- | --- | --- | --- | --- | --- | --- |
| CN1CCN(c2ccc(-c3cccc(CN4CCOCC4)c3)cc2NC(=O)c2c[nH]c(=O)cc2C(F)(F)F)CC1 | mouse MPNST tumor cells | high-content nuclear imaging, measured: cell number | 10 µM, 12 h, mean of 2 replicates | reference: plate mean, higher = more cells | nuclei count | 0.491 z-score and 0.764 z-score |

Some of these lines once more (study 2):
| Sequence | log2 enrichment |
| --- | --- |
| UGGCCCUGGUGGCAUGCGGGGAGGAAGAGGUGGCCUCAUGGAUCGUGGUGGUCCCGGUGGAAUGUGCAGAGGUGGCCGUGGUGGAGACAG | 0.00542 |
| ACCAUGCAGGUGGGCAUCUUUGGGAAGUGGGGCAAGGGGGGGAUAGGGAGGGGGGUAACACUUUGGGAACAGAUGGUCCCAGGUCGUUUC | 1.47 |
| CUCAAGUCCUGUGCUACACAUCGUAUGUACCGAAUCGGGGCCGGGCCGGCCGGGAAAGUAUUAUGUUACGCCGUUCGGAUCUGCACUUCC | 0.861 |
| ACCUUCACGGCAUGGUGCAACUCCCACCUGCGGAAGGCAGGCACACAGAUCGAGAACAUUGAUGAGGACUUCCGAGACGGGCUCAAGCUC | 0.965 |
